Experimental data pooled from the literature.
Lines come from different studies, so protocols differ. “And” joins repeats or separate records; there may be more than shown. Numbers after ± are the reported error.

`O=C(C[C@@H](C(F)F)n1ccc(F)n1)N1CCC(O)(Cn2cnc3c(cnn3-c3ccc(F)cc3)c2=O)CC1` gave a viable cells of 52% and 53.1% and 58.3% (CHP-212 parental; annexin V/PI flow cytometry; 0.3 µM, 48 h).
`COc1cc(O)c2c(=O)c(O)c(-c3ccc(O)c(O)c3)oc2c1` has an IL-1β level of 7.7 ± 1.3 fold change (coculture, Caco-2, THP-1; ELISA; 50 ng/mL, 8 h, together with: LPS, IFNγ, ATP; reference: untreated control).
The viability of `COc1ccc(-n2nc(C(C)=O)s/c2=N\N=C(/C)c2ccc(NC(=O)c3ccc(C)cc3)cc2)cc1` is reported as 3.06% (MCF7; 5 µM).
The EC50 of `COc1cnc2cccc(N3CCc4c(cc(Cn5ccnc5C)cc4-c4cn(C)nc4C(F)(F)F)C3=O)c2c1` is reported as 5.96 µM (SNU119; cell growth; 120 h).
`Cc1cccc(-c2[nH]c(CNc3ccccc3F)nc2-c2ccc3ncnn3c2)n1` gave a viability of 9% (bone marrow CD138+ myeloma cells; XTT; 1.6 µM, mean of three patients).
`Clc1nc(NCc2ccco2)c2[nH]cnc2n1` gave a ΔPSI of 0.248 (FD iPSC-derived cardiomyocytes; alternative splicing, RNA-seq, refers to: C12orf29 exon chr12:88040147-88040265; unit not given; reference: DMSO minus compound).
For `O=C(O)CNC(=O)c1ncc(-c2cccc(Cl)c2)cc1O`, the inhibition was 38% (THP-1; pyroptotic LDH release; 2 µM, 40 min, together with: LPS then nigericin).
With `Nc1nc(F)nc2c1ncn2[C@H]1C[C@H](O)[C@@H](CO)O1` the EC50 was 2.96 µM (HEK293T ATF4-FLuc reporter; ATF4 reporter gene, activator, luciferase reporter).
The IL-1β level of `O=C(O)CCc1ccc(O)c(O)c1` is reported as 8.3 ± 0.8 fold change (coculture, Caco-2, THP-1; ELISA; 200 ng/mL, 8 h, together with: LPS, IFNγ, ATP; reference: untreated control).
The EC50 of `CCn1cc(-c2cc(Cn3ccoc3=N)cc3c2CCN([C@@H](C)c2cc(OC)ccn2)C3=O)c(C(F)(F)F)n1` is reported as 11.8 µM (JHUEM7; cell growth; 120 h).
`CC(C)(C)NC(=O)c1cncn1C1CCN(c2ccc(-c3nnc(C(F)(F)F)o3)cn2)CC1` has a mRNA level of 1.52 (HDMEC; qPCR, refers to: TSC22D1 isoform 3; concentration not given, unit not given; reference: DMSO).
`CCOC(=O)CCC(=O)O[C@H]1[C@H](O[C@@H]2[C@@H](C)[C@H](O[C@H]3C[C@@](C)(OC)[C@@H](O)[C@H](C)O3)[C@@H](C)C(=O)O[C@H](CC)[C@@](C)(O)[C@H](O)[C@@H](C)C(=O)[C@H](C)C[C@@]2(C)O)O[C@H](C)C[C@@H]1N(C)C` gave an inhibition of -4.39% (THP-1; pyroptotic LDH release; 2 µM, 40 min, together with: LPS then nigericin).
`C=CC(=O)Nc1cc2c(Nc3ccc(OCc4ccccn4)c(Cl)c3)ncnc2cc1OCCN1CCOCC1` gave a selectivity ratio of 1.6 (NCI-H2073 EGFR SVD knock-in; cell proliferation, CellTiter-Glo; reference: knock-in over parental NCI-H2073).
`C=CC(=O)Nc1cc2c(Nc3ccc(F)c(Cl)c3)ncnc2cc1OCCCN1CCOCC1` gave an inhibition of 34.7% (THP-1; pyroptotic LDH release; 2 µM, 40 min, together with: LPS then nigericin).
Under “log2 fold change”, `Nc1ncnc2c1ncn2[C@@H]1O[C@H](CO)[C@@H](O)[C@H]1O` is recorded as 9.4 and 8.8 and 8.2 (activated human T cells; refers to: orotate; 30 µM; reference: DMSO).
`CCNC(=O)/C=C/c1cccc(Br)c1` has an inhibition of 20.8% (THP-1; pyroptotic LDH release; 2 µM, 40 min, together with: LPS then nigericin).
`C[C@@H](O)[C@@H]1NC(=O)[C@H](CCCCN)NC(=O)[C@@H](Cc2c[nH]c3ccccc23)NC(=O)[C@H](Cc2ccc(O)cc2)NC(=O)[C@H](NC(=O)[C@H](Cc2ccc([N+](=O)[O-])cc2)NC(=O)CN2CCCN3CCN(CCCN(CC(=O)O)CC3)CC2)CSSC[C@@H](C(=O)N[C@H](Cc2ccc(O)cc2)C(N)=O)NC1=O` [copper-64 labelled] gave a nuclear uptake of 8.81 ± 1.02% (HCT-116 p53-/- SSTR2-transfected; 24 h, together with: cisplatin 40 µM; reference: cell-associated activity).
The EC50 of `C[C@@H](Oc1cc(-n2cnc3ccc(CN4CCN(C)CC4)cc32)sc1C(N)=O)c1ccccc1C(F)(F)F` is reported as 7.42 µM (HEK293T ATF4-FLuc reporter; ATF4 reporter gene, activator, luciferase reporter).
`C[C@H](CS)C(=O)N1CCC[C@H]1C(=O)O` — result for “Keap1 protein level”: 22.7 % decrease (HUVEC; western blot; 10, 100, 1 µM, together with: angiotensin II; reference: angiotensin II alone).
The growth percent of `CCCCN1CCN(c2ccc3[nH]c(-c4ccc5[nH]c(-c6ccc(OCC)c(OCC)c6)nc5c4)nc3c2)CC1` is reported as -96.3% (RXF 393; SRB; 10 µM, 48 h).
`C=Cc1c2[n-]c(c1C)/C=c1\[n-]/c(c(C)c1C=C)=C\c1[n-]c(c(CCC(=O)O)c1C)/C=c1\[n-]c(c(C)c1CCC(=O)O)=C2.[Sn+4]` has a fold change of 2.62 (SH-SY5Y; RNA-seq, refers to: DKK2 mRNA; 5 µM, 5 h; reference: untreated cells).
With `CCCCCCCCCCCCC(=O)O` the inhibition was -24.4% (THP-1; pyroptotic LDH release; 2 µM, 40 min, together with: LPS then nigericin).
The cell growth of `Cc1cc(=O)[nH]n1-c1nc(-c2ccc(Cl)cc2)c2c(NC(=O)c3ccccc3)nnc-2[nH]1` is reported as 92.7% (SF-268; SRB; 10 µM, NCI60 single-dose screen; reference: untreated).
For `Cc1cc(Nc2ncc(Cl)c(Nc3ccccc3S(=O)(=O)C(C)C)n2)c(OC(C)C)cc1C1CCNCC1`, “log2 fold change” read -3.06 (CLB-BAR; phosphoproteomics LC-MS/MS, refers to: C10orf137 phosphorylation; 200 nM, 60 min; reference: untreated).
`CCc1c(-c2ccccc2)c(-c2ccccc2)nn1-c1ccccc1-c1cccc(OCC(=O)O)c1` has a mRNA level of 0.927 and 0.812 and 0.933 (mouse osteoclasts; RT-qPCR, refers to: Nfatc1; 1 µM, unit not given, together with: M-CSF plus RANKL; reference: bone marrow macrophages).
`C#C[C@]1(O)CC[C@H]2[C@@H]3CCC4=CCCC[C@@H]4[C@H]3C(=C)C[C@@]21CC` gave an inhibition of -8.95% (THP-1; pyroptotic LDH release; 2 µM, 40 min, together with: LPS then nigericin).
The EC50 of `Nc1ncc(-c2ccccc2)nc1Nc1ccc2[nH]ccc2c1` is reported as 5.64 µM (HEK293T ATF4-FLuc reporter; ATF4 reporter gene, activator, luciferase reporter).
Under “transepithelial electrical resistance”, `COc1cc(CCC(=O)O)ccc1O` is recorded as 88.6 ± 6.5% (Caco-2/THP-1 co-culture; TEER; concentration not given, together with: LPS 50 ng/mL; reference: control).
`COc1cccc2c1C(=O)c1c(O)c3c(c(O)c1C2=O)C[C@@](O)(C(=O)CO)C[C@@H]3O[C@H]1C[C@H](N)[C@H](O)[C@H](C)O1` — result for “point of departure”: 0.0977 µM (HepG2; oxidative stress, refers to: reactive oxygen species; 6 h, distribution mode 2).
`CCNC(=O)c1noc(-c2cc(C(C)C)c(O)cc2O)c1-c1ccc(CN2CCOCC2)cc1` — result for “MyBP-C level change”: 6.77 SD (human iPSC cardiomyocytes; plate-normalised; concentration not given, hit retest; reference: vehicle controls, SDs below control).
The EC50 of `CCOP(=O)(Cc1ccc(-c2nc3ccccc3s2)cc1)OCC` is reported as 4.33 µM (HEK293T ATF4-FLuc reporter; ATF4 reporter gene, activator, luciferase reporter).
`CCn1cc(-c2cc(Cn3ccnc3)cc3c2CCN([C@H](c2cc(OC)ccn2)C2CC2)C3=O)c(C(F)(F)F)n1` gave an EC50 of 2.43 µM (SNU119; cell growth; 120 h).
`CN(C)Cc1c(C(=O)NCCOc2ccc(C(=O)NO)cc2)oc2ccccc12` gave an EC50 of 0.38 µM (HEK293T ATF4-FLuc reporter; ATF4 reporter gene, activator, luciferase reporter).
`COc1cc(/C=C/C(=O)N2CCC=CC2=O)cc(OC)c1OC` has a mRNA level of 89 ± 12.1% (MDA-MB-468; qRT-PCR, refers to: NDUFB4; 30 µM, 6 h; reference: time zero).
For `Cn1cc(-c2ccc(-c3cncc(Cl)c3N3CCC4(CCNC4=O)CC3)cc2)cn1`, “log2 fold change” read 8.68 (COLO 205; gene expression, microarray, refers to: EPAS1 mRNA; concentration not given, 2 h; reference: untreated cells).
With `Cc1cc(C(C)(C)CC(C)(C)C)ccc1OCCOCC[N+](C)(C)Cc1ccccc1` the EC50 was 4.48 µM (HEK293T ATF4-FLuc reporter; ATF4 reporter gene, activator, luciferase reporter).
`COc1cc2ccc(=O)oc2cc1OC` gave an inhibition of -6.53% (THP-1; pyroptotic LDH release; 2 µM, 40 min, together with: LPS then nigericin).
`O=C(/C=C/C=C/C=C/C1CCCCC1)NC1=C[C@@](O)(/C=C/C=C/C=C/C(=O)NC2=C(O)CCC2=O)[C@@H]2O[C@@H]2C1=O` gave a GI50 of 18.5 µM (NCI-H1975; cell growth, CellTiter-Glo; 78 h).
`COc1cc(NC(=O)CCN2CCC(OC(=O)Nc3ccccc3-c3ccccc3)CC2)c(Cl)cc1CNC[C@H](O)c1ccc(O)c2[nH]c(=O)ccc12` has an EC50 of > 9.96 µM (HEK293T ATF4-FLuc reporter; ATF4 reporter gene, activator, luciferase reporter).
With `O=C(O)/C=C/c1ccc(O)c(O)c1` the IL-1β level was 6.3 ± 1.6 fold change (coculture, Caco-2, THP-1; ELISA; 250 ng/mL, 8 h, together with: LPS, IFNγ, ATP; reference: untreated control).
`CC(C)(C)NC(=O)[C@@H]1C[C@@H]2CCCC[C@@H]2CN1C[C@@H](O)[C@H](Cc1ccccc1)NC(=O)[C@H](CC(N)=O)NC(=O)c1ccc2ccccc2n1` gave an inhibition of 71% (THP-1; pyroptotic LDH release; 2 µM, 40 min, together with: LPS then nigericin).
`CCCCc1nc(Cl)c(CO)n1Cc1ccc(-c2ccccc2-c2nn[nH]n2)cc1`: “log2 fold change” 1.56 (human PBMC; RNA-seq, refers to: MT1F mRNA; 10 µg/mL, 24 h; reference: untreated control).
The colony survival of `O=C(c1cc(Cc2n[nH]c(=O)c3ccccc23)ccc1F)N1CCN(C(=O)C2CC2)CC1` is reported as 18.6% (MDA-MB-436 BRCA1-mutant; colony formation; 40 nM; reference: vehicle (DMSO)).
